Results pooled from the literature.
Parts stem from different laboratories: compare values within a part only.

Series 1
Target: Histone acetyltransferase KAT6A, both winged helices, GST fusion (KAT6A, Homo sapiens, UniProt Q92794, residues 1-181)
Technique: protein binding microarray
Molecule type: double-stranded DNA, one strand shown
Medium: in vitro
Tested at: not given
Setting: 8-mer, flanks averaged, mean of 2 arrays, mostly near background
Relative to: not given
Direction: higher = stronger binding
Construct (chain): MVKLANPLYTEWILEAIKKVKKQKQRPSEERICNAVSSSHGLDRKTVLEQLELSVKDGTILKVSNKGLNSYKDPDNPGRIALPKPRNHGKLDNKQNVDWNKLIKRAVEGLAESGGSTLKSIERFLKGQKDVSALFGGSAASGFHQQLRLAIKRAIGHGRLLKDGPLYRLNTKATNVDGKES
Strand	E-score
ATCATAAA	-0.127
CGGAACTA	0.173
CCACTGGA	-0.131
GAGTGCAA	-0.112
ATGACATC	0.137
AGCAGATG	-0.3
GTTAGCTA	-0.0962

Series 2
Target: Sal-like protein 4, full length isoform A (SALL4, Homo sapiens, UniProt Q9UJQ4, residues 1-1053)
Chain of UniProt Q9UJQ4 (whole entry, looked up): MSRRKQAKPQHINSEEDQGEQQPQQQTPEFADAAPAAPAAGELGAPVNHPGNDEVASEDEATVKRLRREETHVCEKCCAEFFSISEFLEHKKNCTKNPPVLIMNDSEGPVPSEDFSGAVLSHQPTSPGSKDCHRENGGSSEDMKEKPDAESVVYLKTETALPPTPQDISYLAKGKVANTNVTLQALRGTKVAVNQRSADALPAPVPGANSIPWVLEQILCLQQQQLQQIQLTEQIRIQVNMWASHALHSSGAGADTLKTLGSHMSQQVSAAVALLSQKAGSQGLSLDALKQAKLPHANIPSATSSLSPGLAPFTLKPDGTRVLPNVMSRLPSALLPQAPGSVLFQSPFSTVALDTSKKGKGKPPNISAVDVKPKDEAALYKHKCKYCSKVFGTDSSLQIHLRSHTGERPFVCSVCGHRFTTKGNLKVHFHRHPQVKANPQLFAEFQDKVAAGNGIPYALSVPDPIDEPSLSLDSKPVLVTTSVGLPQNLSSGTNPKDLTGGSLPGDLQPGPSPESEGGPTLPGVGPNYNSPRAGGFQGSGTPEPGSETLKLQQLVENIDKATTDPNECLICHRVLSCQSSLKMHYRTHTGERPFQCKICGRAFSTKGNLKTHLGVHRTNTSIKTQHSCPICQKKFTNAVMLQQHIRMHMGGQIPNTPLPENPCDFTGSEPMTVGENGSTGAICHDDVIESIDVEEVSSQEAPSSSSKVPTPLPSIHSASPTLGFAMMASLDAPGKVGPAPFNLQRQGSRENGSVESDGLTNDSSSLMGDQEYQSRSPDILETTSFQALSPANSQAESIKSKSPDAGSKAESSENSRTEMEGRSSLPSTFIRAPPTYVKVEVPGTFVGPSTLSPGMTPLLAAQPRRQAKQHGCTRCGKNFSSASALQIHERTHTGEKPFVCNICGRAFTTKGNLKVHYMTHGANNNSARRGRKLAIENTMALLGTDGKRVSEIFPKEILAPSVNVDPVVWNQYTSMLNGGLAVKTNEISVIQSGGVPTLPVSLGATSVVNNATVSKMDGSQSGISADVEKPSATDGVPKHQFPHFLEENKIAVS
Technique: universal PBM
Molecule type: double-stranded DNA, one strand shown
Medium: in vitro
Tested at: 600 nM
Setting: 8-mer, flanks averaged, mean of replicates
Direction: higher = stronger binding
Strand	E-score
ATGGTCAA	0.164
GACTTCCC	-0.134
GGCCCGGA	-0.348
GCCTTTTA	-0.104
GTAGACGA	0.0122
ACACAATG	0.232
AAAGCCGA	-0.23
CTACGCTA	-0.0744
CGGCACTC	-0.222
CCGAGACG	-0.216

Series 3
Target: Centromere-binding protein 1, full length, N-terminal tag (CBF1, Saccharomyces cerevisiae, UniProt P17106, residues 1-351)
Chain of UniProt P17106 (whole entry, looked up): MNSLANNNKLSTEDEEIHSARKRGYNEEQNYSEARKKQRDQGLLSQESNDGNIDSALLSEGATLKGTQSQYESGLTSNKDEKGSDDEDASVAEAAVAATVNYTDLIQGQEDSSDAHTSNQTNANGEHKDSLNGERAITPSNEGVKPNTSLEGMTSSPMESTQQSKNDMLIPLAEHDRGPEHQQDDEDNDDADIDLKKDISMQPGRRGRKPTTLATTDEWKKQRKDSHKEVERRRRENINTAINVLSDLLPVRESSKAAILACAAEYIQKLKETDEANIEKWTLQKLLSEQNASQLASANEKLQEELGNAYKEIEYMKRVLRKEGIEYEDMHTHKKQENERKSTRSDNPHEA
Technique: protein-binding microarray
Molecule type: double-stranded DNA, one strand shown
Medium: in vitro
Tested at: 0.8 µM
Setting: whole 60-bp probe, no competitor
Direction: higher = stronger binding
All sequences stand within: … GTCTTGATTCGCTTGACGCTGCTG
Strand	fluorescence intensity [a.u.]
GAAGTCAGGGAAATGCACGAGAAAAGCACTTATTAG	548
GAACAGGAACGTAAGGAGGTGATGGAAGAACAGTAG	527
GAACAAGACACATTTCACCTGATATTGAAGAATTAG	654
GAAGTGGTGCAAAGATGTGTCACGTTCTGGACCTAG	2310
CTATTAATTATCTAACGCGTGCTTCGTCCTACTTTC	744
GAAGGGCAAAGACGATCCGTCACGAGCGATCATTAG	1020
GAAATAGGTATTCATATCGTGAACTGCGCAACTTAG	526
GAAGACTAGAATGGGCACGTGATCATAAAATTATAG	27500
CCTAACTACTATAATCACCTTCTATAGCTTCGTACA	497
CTACCACACTGACGGGGTCACGTGTGTTTATTCTTC	18300

Further values, each from its own experiment
Molecule	target	test	system	conditions	scale	endpoint	value
PhoQ, residues 284 288 289 292 302 303 TNASYF	PhoP, residues 12 14 15 18 19 IQFRS (Escherichia coli, UniProt P23836)	Sort-seq, item: YFP reporter	E. coli	PhoQ-PhoP variant library, added: 10 µM Mg2+	relative to: high Mg2+ state, higher = stronger signaling	fold induction	8.5

Repeated from above (series 2):
Strand	E-score
GGCCCGGA	-0.348
GCCTTTTA	-0.104
GTAGACGA	0.0122
ACACAATG	0.232
